Experimental data of several laboratories.
Numbered parts are unrelated; each lists some results of a single study.

Study 1
Target: Max-binding protein MNT, bHLH-zipper, MAX partner unstated (MNT, Homo sapiens, UniProt Q99583, residues 220-300)
Method: protein-binding microarray
Molecule type: double-stranded DNA, one strand shown
Sample: in vitro
Tested at: not given
Notes: k-mer, scored over probes, only values ≥0.25
Direction: higher = stronger binding
Endpoint: E-score
Construct (chain): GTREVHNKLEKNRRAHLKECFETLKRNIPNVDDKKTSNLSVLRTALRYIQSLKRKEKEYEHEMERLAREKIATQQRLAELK
Sequence = CACGTTGG; value = 0.42
Sequence = AGTCATGC; value = 0.336
Sequence = CGTGGGGC; value = 0.398
Sequence = GGGCGTGA; value = 0.299

Study 2
Target: Ras GTPase-activating protein-binding protein 1, full length (G3BP1, Homo sapiens, UniProt Q13283)
UniProt Q13283, sequence (whole entry, looked up): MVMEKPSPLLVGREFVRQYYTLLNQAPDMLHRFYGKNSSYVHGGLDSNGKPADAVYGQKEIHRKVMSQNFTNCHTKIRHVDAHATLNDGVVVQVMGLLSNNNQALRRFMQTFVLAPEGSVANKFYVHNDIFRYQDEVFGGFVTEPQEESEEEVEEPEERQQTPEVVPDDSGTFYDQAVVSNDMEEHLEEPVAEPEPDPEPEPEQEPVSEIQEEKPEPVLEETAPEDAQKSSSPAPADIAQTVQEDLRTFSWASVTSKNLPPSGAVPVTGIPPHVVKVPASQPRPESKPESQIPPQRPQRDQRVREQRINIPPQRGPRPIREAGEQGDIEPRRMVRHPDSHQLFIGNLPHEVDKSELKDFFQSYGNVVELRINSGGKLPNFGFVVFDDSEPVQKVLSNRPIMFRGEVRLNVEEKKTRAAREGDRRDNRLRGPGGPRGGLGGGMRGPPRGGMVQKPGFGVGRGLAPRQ
Method: RNA Bind-n-Seq
Molecule type: RNA
Sample: in vitro
Tested at: 200 nM
Notes: whole 134-nt RNA, ends assumed
With: 150 mM LiCl
Relative to: input library
Direction: higher = stronger binding
Endpoint: log2 enrichment
Library: 7-deaza-guanosine replaces G
Sequence = GGGAGUUCUACAGUCCGACGAUCUGGGAGGUGGAUUUUGUUUAUUUUUUUAGCUCAUUUCCAGGGGUGGGAAUUUUUUUUUAAUAUGUGUCCUGAAUAAAGUUGUUUUUGAAAUGGAAUUCUCGGGUGUCAAGG; value = 0.000299
Sequence = GGGAGUUCUACAGUCCGACGAUCUCCUCAAGUCCUGUGCUACACAUCGUAUGUACCGAAUCGGUGGGGUGGUGGGAAAGUAUUAUGUUACGCCGUUCGGAUCUGCACUUCCAGUGGAAUUCUCGGGUGUCAAGG; value = 0.663
Sequence = GGGAGUUCUACAGUCCGACGAUCCACAGACAACACGCACCCACACAGACACAGAGGGAAGGGGUUGGGAUGGGGACAGGGUGCACAGCAGGGGGGGGUAGGACCCCAGCCCCUUGGAAUUCUCGGGUGUCAAGG; value = 0.693

Study 3
Target: Centromere-binding protein 1, full length, N-terminal tag (CBF1, Saccharomyces cerevisiae, UniProt P17106, residues 1-351)
UniProt P17106, sequence (whole entry, looked up): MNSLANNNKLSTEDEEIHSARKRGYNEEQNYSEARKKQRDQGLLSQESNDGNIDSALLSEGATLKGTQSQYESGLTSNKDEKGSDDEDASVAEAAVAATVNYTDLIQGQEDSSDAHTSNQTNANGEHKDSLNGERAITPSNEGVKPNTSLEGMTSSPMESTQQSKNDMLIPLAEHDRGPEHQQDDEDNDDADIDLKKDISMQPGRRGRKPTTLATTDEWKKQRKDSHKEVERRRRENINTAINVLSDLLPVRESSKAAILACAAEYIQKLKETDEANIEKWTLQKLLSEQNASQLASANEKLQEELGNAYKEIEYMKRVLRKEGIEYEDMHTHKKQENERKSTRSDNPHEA
Method: protein-binding microarray
Molecule type: double-stranded DNA, one strand shown
Sample: in vitro
Tested at: 0.8 µM
Notes: whole 60-bp probe, no competitor
Direction: higher = stronger binding
Endpoint: fluorescence intensity
Sequence = CTAAAGTGTGTGAATTTCGTGATAAAATTATTGTTCGTCTTGATTCGCTTGACGCTGCTG; value = 561 a.u.
Sequence = CTAGGAAAACGTATACACGTCACATATCACACATTCGTCTTGATTCGCTTGACGCTGCTG; value = 565 a.u.
Sequence = GAAGATGCGTCTACTCATCACCTATAGTCTCAATAGGTCTTGATTCGCTTGACGCTGCTG; value = 513 a.u.
Sequence = CTAACAACGTCGACGCACGCGATAGCTCATTTCTTCGTCTTGATTCGCTTGACGCTGCTG; value = 564 a.u.

Further values, each from its own experiment
Molecule = PhoQ, residues 284 288 289 292 302 303 GANMMA; target = PhoP, residues 12 14 15 18 19 LWHVM (Escherichia coli, UniProt P23836); test = Sort-seq, item: YFP reporter; test system = E. coli; conditions = PhoQ-PhoP variant library, with: 10 µM Mg2+; how to read = relative to: high Mg2+ state, higher = stronger signaling; endpoint = fold induction; value = 4.06

Excerpt of the above (study 2):
Sequence = GGGAGUUCUACAGUCCGACGAUCUGGGAGGUGGAUUUUGUUUAUUUUUUUAGCUCAUUUCCAGGGGUGGGAAUUUUUUUUUAAUAUGUGUCCUGAAUAAAGUUGUUUUUGAAAUGGAAUUCUCGGGUGUCAAGG; value = 0.000299
Sequence = GGGAGUUCUACAGUCCGACGAUCCACAGACAACACGCACCCACACAGACACAGAGGGAAGGGGUUGGGAUGGGGACAGGGUGCACAGCAGGGGGGGGUAGGACCCCAGCCCCUUGGAAUUCUCGGGUGUCAAGG; value = 0.693
